Measurements of several laboratories.
Parts stem from different laboratories: compare values within a part only.
Sequence of UniProt P00519 (whole entry, unmodified, looked up): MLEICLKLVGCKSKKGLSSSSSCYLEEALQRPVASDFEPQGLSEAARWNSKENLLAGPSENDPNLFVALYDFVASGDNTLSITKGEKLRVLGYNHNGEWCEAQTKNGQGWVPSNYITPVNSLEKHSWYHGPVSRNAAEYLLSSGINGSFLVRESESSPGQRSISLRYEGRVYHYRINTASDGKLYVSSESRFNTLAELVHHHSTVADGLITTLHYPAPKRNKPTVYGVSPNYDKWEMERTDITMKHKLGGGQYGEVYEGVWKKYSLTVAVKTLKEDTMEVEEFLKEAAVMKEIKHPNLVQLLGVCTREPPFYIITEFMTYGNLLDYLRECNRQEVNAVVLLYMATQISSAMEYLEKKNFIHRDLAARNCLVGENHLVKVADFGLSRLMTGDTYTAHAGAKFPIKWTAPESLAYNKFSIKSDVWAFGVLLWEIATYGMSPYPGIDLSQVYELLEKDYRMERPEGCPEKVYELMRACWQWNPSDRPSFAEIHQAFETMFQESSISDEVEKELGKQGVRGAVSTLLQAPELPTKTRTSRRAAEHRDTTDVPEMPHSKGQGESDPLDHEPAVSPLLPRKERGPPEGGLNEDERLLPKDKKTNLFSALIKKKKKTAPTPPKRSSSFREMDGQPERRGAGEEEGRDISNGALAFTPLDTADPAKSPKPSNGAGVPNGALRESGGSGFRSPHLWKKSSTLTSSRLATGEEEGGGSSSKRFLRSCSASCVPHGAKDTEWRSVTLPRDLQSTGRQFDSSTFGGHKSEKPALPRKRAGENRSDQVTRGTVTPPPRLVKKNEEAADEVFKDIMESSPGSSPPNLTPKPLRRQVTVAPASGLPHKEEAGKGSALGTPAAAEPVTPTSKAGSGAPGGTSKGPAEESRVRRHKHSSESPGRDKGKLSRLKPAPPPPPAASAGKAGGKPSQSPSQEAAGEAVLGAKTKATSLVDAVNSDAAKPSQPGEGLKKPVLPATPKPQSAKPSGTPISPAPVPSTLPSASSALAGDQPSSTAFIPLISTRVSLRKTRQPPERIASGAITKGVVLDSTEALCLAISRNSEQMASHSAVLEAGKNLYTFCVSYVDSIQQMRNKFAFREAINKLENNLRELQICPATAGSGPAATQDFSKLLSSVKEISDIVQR
Sequence of UniProt P49761 (whole entry, looked up): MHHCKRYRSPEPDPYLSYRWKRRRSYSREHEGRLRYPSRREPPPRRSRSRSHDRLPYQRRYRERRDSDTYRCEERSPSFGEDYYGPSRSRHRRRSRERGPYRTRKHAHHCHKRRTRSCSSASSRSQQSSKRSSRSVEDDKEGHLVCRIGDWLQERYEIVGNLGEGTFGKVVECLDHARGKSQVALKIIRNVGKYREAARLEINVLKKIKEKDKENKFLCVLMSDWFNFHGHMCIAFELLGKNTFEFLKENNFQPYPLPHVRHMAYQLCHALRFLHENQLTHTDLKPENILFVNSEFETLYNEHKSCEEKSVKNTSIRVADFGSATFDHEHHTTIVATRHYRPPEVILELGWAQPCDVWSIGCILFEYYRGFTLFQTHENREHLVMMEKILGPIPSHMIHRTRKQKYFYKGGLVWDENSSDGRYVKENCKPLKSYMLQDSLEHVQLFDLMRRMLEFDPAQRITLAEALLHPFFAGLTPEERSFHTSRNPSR
Sequence of UniProt P31751 (whole entry, looked up): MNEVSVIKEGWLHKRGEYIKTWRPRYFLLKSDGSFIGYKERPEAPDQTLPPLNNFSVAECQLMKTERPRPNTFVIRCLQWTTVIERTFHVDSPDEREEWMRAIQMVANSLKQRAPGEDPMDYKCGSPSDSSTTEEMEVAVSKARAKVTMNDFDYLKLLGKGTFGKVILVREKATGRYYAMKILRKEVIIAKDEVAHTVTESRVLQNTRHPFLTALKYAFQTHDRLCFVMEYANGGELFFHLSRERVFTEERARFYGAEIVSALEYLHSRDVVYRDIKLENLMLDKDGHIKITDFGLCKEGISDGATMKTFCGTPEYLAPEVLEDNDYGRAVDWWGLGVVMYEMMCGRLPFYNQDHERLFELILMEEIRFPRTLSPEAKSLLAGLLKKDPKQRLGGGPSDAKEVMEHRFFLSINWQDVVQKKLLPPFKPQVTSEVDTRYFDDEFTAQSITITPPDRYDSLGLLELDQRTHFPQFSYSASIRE
Sequence of UniProt Q16539 (whole entry, looked up): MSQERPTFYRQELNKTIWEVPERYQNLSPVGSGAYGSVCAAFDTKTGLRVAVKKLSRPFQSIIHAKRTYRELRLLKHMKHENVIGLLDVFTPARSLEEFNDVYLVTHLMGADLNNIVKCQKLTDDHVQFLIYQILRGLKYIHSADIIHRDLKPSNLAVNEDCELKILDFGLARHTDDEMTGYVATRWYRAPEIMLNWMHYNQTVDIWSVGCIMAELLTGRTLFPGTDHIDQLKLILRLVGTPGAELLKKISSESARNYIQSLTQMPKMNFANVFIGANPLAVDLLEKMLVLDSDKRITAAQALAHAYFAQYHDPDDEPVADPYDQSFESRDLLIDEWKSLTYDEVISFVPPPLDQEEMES
Sequence of UniProt Q8N4C8 (whole entry, looked up): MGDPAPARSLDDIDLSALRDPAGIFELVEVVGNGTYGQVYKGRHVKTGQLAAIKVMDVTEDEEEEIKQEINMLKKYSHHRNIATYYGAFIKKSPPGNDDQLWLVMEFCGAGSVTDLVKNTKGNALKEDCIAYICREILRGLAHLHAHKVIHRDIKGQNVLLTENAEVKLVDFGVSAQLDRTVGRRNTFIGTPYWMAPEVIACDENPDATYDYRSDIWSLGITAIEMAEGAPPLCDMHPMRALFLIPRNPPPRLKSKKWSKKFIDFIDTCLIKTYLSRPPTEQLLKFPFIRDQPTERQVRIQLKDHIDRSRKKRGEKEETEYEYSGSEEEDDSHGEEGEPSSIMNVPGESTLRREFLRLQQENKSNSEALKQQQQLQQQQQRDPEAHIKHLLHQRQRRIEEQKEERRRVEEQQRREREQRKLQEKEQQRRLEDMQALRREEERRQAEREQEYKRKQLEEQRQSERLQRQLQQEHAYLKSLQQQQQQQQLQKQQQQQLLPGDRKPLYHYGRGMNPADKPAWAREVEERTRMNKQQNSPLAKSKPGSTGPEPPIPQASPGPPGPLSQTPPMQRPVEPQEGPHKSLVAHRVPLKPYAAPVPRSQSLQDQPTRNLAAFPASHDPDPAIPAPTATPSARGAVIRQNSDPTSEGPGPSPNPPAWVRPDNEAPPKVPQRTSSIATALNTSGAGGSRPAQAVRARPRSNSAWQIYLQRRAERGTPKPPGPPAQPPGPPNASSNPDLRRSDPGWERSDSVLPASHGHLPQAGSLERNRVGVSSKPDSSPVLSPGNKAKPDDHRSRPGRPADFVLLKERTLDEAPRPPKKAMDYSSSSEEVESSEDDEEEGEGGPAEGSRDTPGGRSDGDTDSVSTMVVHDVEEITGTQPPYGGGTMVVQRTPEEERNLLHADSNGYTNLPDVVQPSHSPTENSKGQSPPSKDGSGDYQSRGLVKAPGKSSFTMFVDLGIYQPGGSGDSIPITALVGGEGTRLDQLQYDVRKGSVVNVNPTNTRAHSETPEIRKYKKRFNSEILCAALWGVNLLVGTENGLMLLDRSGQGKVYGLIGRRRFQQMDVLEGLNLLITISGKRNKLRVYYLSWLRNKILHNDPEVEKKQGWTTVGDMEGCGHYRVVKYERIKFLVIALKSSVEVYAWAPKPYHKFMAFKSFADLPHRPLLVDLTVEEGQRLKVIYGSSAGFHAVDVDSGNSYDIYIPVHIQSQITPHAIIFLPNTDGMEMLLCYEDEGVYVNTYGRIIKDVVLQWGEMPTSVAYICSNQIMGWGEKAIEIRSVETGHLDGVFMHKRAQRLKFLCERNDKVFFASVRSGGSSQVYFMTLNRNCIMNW
Sequence of UniProt Q8N568 (whole entry, looked up): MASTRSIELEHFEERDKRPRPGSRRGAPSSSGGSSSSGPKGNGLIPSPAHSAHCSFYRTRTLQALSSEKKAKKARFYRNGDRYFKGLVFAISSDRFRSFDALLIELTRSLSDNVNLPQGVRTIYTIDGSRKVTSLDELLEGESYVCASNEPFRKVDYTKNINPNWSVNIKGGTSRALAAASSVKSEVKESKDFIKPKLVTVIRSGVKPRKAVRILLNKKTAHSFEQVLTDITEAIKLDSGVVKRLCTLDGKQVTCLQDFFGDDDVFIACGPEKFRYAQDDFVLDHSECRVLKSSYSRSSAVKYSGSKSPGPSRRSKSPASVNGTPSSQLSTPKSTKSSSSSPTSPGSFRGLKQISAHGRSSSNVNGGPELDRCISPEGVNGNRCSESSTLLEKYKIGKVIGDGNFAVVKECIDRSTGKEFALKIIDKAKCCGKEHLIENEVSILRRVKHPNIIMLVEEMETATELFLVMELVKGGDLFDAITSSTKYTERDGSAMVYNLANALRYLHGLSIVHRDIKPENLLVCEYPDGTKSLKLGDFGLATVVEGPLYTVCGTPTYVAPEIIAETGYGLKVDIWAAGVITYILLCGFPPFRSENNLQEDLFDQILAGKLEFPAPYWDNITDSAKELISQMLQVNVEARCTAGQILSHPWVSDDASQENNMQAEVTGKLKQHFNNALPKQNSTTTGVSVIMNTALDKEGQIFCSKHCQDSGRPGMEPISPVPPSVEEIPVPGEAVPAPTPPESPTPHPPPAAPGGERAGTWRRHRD
Sequence of UniProt P50750 (whole entry, looked up): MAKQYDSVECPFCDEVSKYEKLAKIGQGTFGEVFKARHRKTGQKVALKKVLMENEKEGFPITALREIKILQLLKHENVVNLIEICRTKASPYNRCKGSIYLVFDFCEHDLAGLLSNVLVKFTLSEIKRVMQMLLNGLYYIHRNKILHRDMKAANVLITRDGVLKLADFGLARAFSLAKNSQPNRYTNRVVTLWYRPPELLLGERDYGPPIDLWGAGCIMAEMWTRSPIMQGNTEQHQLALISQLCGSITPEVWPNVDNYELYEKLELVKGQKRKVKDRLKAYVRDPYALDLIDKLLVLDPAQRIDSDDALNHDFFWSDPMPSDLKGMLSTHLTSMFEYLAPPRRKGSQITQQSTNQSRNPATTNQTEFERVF

Sample 1
Species: mouse
Matrix: microsomes or S9
Concentration: 2 µM
Time: 0.5 h
With CN(C)Cc1nnc([C@H]2C[C@H](NC(=O)C3CCC(C(C)(C)C)CC3)C2)n1C (stereo partly shown) the remaining compound was 42.3%.
For CCOc1cc(=O)n2c(c1C(=O)NC1CCc3ccccc31)CCCCC2 (stereo not shown), the remaining compound was 4.49%.
The remaining compound of Clc1cccnc1N1CCCC(Cn2ccnc2)C1 (stereo not shown) is reported as 69.7%.
CC(C)(C)OC(=O)C1C(=O)CC(C)(O)C(C(=O)OC(C)(C)C)C1c1cccnc1 (stereo not shown) gave a remaining compound of 19.7%.
With O=C(Nc1ccc(F)cc1)Nc1cc2ccc(O)cc2s1 the remaining compound was 40.9%.
For CC(C)(C)OC(=O)N1CCCC1C(=O)NC(CC1=NOC(C(N)=O)C1)c1ccccc1 (stereo not shown), the remaining compound was 40.3%.
Cc1nc(OCCN2CCOCC2)c(C#N)c2c1COC(C)(C)C2 gave a remaining compound of > 100%.
COc1ccc(NC(=O)N2CCC3(C2)C(=O)Nc2ccccc23)c(OC)c1 (stereo not shown) has a remaining compound of 64.6%.
The remaining compound of CCc1nn(CC(=O)N2CCC(N3CCCCC3)CC2)c(=O)c2cc3sccc3n12 is reported as 76.7%.
With O=S(=O)(CCNc1ccccc1F)c1ccccc1 the remaining compound was 0.122%.
With Oc1cccc(-c2cn(Cc3ccc4sccc4c3)nn2)c1 the remaining compound was 6.62%.
CC(NC(=O)CN1C(=O)CCn2nc(-c3cn(C)c4ccccc34)cc21)c1ccc2c(c1)OCCO2 (stereo not shown) gave a remaining compound of 2.01%.
With Nc1oc(=O)c2ccccc2c1N1CCCc2ccccc21 the remaining compound was 32.7%.

Sample 2
Target: His6 tag
Method: AlphaScreen counter screen
Concentration: concentration not given
COc1ccc(Cl)cc1C(=O)Nc1ccc2[nH]ncc2c1 gave an inhibition of 8.65%.
For C=C(C)Cn1c(SCCC(=O)O)nc2c1c(=O)[nH]c(=O)n2C, the inhibition was 2.9%.
For COc1cccc(NC(=O)CSc2ccc3nnc(-c4ccc(Cl)cc4)n3n2)c1, the inhibition was -6.2%.
The inhibition of CC(C)Oc1ccc(NC(=O)Nc2ccc(Cl)c(Cl)c2)cc1 is reported as 8.75%.
NC(=O)COc1ccc2cc(-c3nc4ccccc4s3)c(=O)oc2c1 has an inhibition of 9.15%.
The inhibition of CCn1c(=O)c(-c2cc[nH]n2)cc2c(C)nc(N)nc21 is reported as 30.1%.
For Fc1ccc(-c2[nH]c3ncccc3c2CN2CCOCC2)cc1, the inhibition was 0%.
The inhibition of c1coc(-c2[nH]c3ncccc3c2CN2CCOCC2)c1 is reported as 3.4%.
O=C(O)CCSc1nnc2c(n1)[nH]c1ccccc12 gave an inhibition of -8.8%.

Sample 3
SMILES: Cc1cc2ncc(-c3ccccc3)nc2cc1C
Observed: enzyme activity
Mode: inhibitor
Concentration: 0.5 µM
Reference: control
PAK3 (Homo sapiens, UniProt O75914) — remaining activity: 96.2%.
For MINK1 (Homo sapiens, UniProt Q8N4C8): remaining activity read 91.8%.
It gave 103% for remaining activity (MAPK14 (Homo sapiens, UniProt Q16539)).
For KDR (Homo sapiens, UniProt P35968): remaining activity read 99.1%.
Cyclin-dependent kinase 9, with cyclin K (CDK9, Homo sapiens, UniProt P50750) — remaining activity: 101%.
The remaining activity was 92.8% (CLK3 (Homo sapiens, UniProt P49761)).
Cyclin-dependent kinase 1, with cyclin A (CDK1, Homo sapiens, UniProt P06493) — remaining activity: 94.4%.
The remaining activity was 100% (ROCK1 (Homo sapiens, UniProt Q13464)).
The remaining activity was 96.3% (PNCK (Homo sapiens, UniProt Q6P2M8)).
For RPS6KA4 (Homo sapiens, UniProt O75676): remaining activity read 99.4%.
AKT2 (Homo sapiens, UniProt P31751) — remaining activity: 99.7%.
The remaining activity was 99% (Myosin-IIIb (MYO3B, Homo sapiens, UniProt Q8WXR4)).
It gave 100% for remaining activity (DCLK2 (Homo sapiens, UniProt Q8N568)).
TLK2 (Homo sapiens, UniProt Q86UE8) — remaining activity: 100%.

Single results of other studies
With C[C@H](NC(=O)Nc1cc2[nH]ncc2c(CO)n1)c1ccccn1 the remaining binding was 100% (Tyrosine-protein kinase ABL1, phosphorylated (ABL1, Homo sapiens, UniProt P00519, F317I); binding; 1 µM).

Some of these lines once more (sample 3):
For MINK1 (Homo sapiens, UniProt Q8N4C8): remaining activity read 91.8%.
It gave 103% for remaining activity (MAPK14 (Homo sapiens, UniProt Q16539)).
